Earlier results that unrelated publications cite.
Compare with care: the assays were run in different laboratories. ± gives the spread as reported.

Protein sequences, listed by entry. Tags and fused reporters are not part of them.
UniProt Q9UUB1, whole entry: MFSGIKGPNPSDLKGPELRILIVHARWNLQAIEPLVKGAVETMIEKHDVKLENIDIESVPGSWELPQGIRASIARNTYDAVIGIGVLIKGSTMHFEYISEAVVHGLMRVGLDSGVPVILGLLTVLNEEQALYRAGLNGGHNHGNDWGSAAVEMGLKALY
UniProt P33261, whole entry: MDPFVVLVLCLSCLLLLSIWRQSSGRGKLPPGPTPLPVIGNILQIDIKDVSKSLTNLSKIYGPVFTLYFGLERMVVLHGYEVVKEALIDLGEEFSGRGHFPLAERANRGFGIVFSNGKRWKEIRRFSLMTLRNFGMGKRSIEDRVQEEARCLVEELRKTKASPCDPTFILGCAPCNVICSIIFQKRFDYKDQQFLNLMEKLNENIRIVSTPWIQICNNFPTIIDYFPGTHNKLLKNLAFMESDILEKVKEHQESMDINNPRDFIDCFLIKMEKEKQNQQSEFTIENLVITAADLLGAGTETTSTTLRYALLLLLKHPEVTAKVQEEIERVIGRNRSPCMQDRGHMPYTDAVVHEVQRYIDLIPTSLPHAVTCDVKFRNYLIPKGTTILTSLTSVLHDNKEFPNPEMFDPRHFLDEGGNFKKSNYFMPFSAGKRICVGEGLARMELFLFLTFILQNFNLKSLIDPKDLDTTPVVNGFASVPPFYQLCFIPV

Structure (SMILES) | tested on | test | test system | setting | scale | endpoint | value
CN(CCNCc1cc(Cl)cc(Cl)c1)c1nc2nc(Cl)ccc2[nH]1 | Hep G2 | – | – | – | – | CC50 | 39.2 µM
CCOc1ccc2cc(-c3nn(C(C)(C)C)c(N)c3C(N)=O)cnc2c1 | – | – | cattle, plasma | dose not given, maximum level achieved | – | plasma concentration | ≤ 5 µM
NC1=NC2(CCCCC2)N(c2ccc(OCc3cn(CCCCOc4ccc5ccc(=O)oc5c4)nn3)cc2)C(N)=N1 | HepG2 | – | – | – | relative to: CC50 HepG2 over MIC50 | selectivity index | > 4000
CN(C(=O)Cc1ccc(Cl)c(Cl)c1)[C@@H]1CCCC[C@H]1N1CCCC1 | – | – | mouse | oral, 150 mg/kg | – | time above EC99 | 4 h
CNCC(=O)N[C@@H](Cc1c[nH]c2ccccc12)C(=O)N[C@H](C(=O)N[C@@H](CC(C)C)C(=O)N[C@@H](CC(N)=O)C(=O)N[C@@H](CO)C(=O)N[C@@H](C)C(=O)NCC(=O)N[C@@H](Cc1ccc(O)cc1)C(=O)N[C@@H](CC(C)C)C(=O)N[C@@H](CC(C)C)C(=O)NCC(=O)N1CCC[C@H]1C(=O)N[C@@H](CCCCN)C(=O)N[C@@H](CCCCN)C(=O)N[C@@H](CCCCN)C(=O)N[C@@H](CCCCN)C(N)=O)[C@@H](C)O | – | HPLC retention calibrated | octanol/PBS | – | – | logD | 0.34
c1ccc2c[n+](CCCCCCCC[n+]3ccc4ccccc4c3)ccc2c1 | – | – | mouse | intramuscular, 24 h | – | LD50 | 97.2 mg/kg
CCC(=O)Nc1c(NC[C@H](O)[C@H](O)[C@H](O)CO)[nH]c(=O)[nH]c1=O | 6,7-dimethyl-8-ribityllumazine synthase (rib4, Schizosaccharomyces pombe, UniProt Q9UUB1) | inhibitor | – | pH 7.0 | – | Ki | 11 ± 1 µM
C=CC[N+](C)(C)c1ccc(CCC(=O)CCc2ccc([N+](C)(C)CC=C)cc2)cc1 | HeLa | cytotoxicity, MTT | – | – | – | IC50 | > 3000 µM
Cc1cc(C)c2c(N)c(C(=O)NCc3ccc4c(c3)OCO4)sc2n1 | – | – | rat liver microsomes | 90 min | – | remaining parent compound | < 10%
c1cc[n+](CCCCCCCCCC[n+]2ccccc2)cc1 | – | – | mouse | intramuscular, 24 h | – | LD50 | 63.9 mg/kg
Ic1ccc(CSCn2ccnc2)cc1 | CYP2C19 (Homo sapiens, UniProt P33261) | – | – | – | – | Ki | 0.0191 µM
c1ccc2c(c1)ccc[n+]2CCCCCCCCCC[n+]1cccc2ccccc21 | ACHN | cytotoxicity, MTT | – | – | – | IC50 | 1710 µM
NCCNCCSc1ccccc1 | – | – | urine | 1 µg/mL, 24 h, room temperature | – | short-term stability | 93.8 ± 2.66 % remaining

Repeated from above:
Structure (SMILES) | tested on | test | test system | setting | scale | endpoint | value
C=CC[N+](C)(C)c1ccc(CCC(=O)CCc2ccc([N+](C)(C)CC=C)cc2)cc1 | HeLa | cytotoxicity, MTT | – | – | – | IC50 | > 3000 µM
Cc1cc(C)c2c(N)c(C(=O)NCc3ccc4c(c3)OCO4)sc2n1 | – | – | rat liver microsomes | 90 min | – | remaining parent compound | < 10%
